Assay results from different studies.
Numbered parts are unrelated; each lists some results of a single study.

Study 1 — method: RNAcompete; form: RNA; medium: in vitro; concentration: 20 nM; setting: 7-mer, probes averaged, single round; baseline: mean of 7-mers; direction: higher = stronger binding
Target: PABPC1L2, full length, GST fusion (mouse, UniProt A0ABA7IW68)
Target sequence (chain): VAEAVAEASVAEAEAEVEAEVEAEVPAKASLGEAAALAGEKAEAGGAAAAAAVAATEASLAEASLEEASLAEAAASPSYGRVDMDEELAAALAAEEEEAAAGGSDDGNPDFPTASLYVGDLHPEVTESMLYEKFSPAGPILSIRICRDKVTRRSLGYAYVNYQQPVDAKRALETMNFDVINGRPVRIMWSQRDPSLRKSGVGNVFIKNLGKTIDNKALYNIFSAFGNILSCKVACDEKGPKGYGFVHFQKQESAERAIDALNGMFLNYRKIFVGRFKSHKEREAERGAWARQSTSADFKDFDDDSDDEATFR
Oligonucleotide	7-mer Z-score
AGCCCUC	-0.331
GAUUGCG	-0.0881
ACCAUAA	0.764
CGACCCC	-0.248
CUAUACU	-0.34
CGCCAAU	-0.32
GUUGAUA	-0.104

Study 2 — method: protein-binding microarray; form: double-stranded DNA, one strand shown; medium: in vitro; concentration: 2540 nM top; setting: 60-bp whole probe; together with: salmon DNA 0.4 mg/ml; baseline: random background probes; direction: higher = stronger binding; all sequences stand within: GCCTAGCAC … GTCTTGATTCGCTTGACGCTGCTG
Target: Interferon regulatory factor 3, full length, phosphomimetic (IRF3, Homo sapiens, UniProt Q14653, residues 1-427, S386D/S396D/S398D/S402D/T404D/S405D)
Construct (chain): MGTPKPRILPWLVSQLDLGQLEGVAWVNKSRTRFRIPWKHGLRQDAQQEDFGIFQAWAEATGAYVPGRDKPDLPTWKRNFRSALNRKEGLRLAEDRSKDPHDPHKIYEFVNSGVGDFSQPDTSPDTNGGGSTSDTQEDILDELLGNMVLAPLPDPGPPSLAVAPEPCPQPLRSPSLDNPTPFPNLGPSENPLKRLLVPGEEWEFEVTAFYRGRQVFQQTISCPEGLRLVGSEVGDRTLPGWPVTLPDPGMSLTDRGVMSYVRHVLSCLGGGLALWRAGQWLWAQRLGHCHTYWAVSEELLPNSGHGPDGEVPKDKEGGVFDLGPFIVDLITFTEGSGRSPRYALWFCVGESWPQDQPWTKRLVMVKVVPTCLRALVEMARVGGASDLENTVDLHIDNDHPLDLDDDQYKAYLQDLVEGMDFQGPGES
Oligonucleotide	fitted relative affinity [z-score]
TCATCTTTCTAATTCAAACTGTGCTAG	2.33
GACGGTATCGGACTGGGGCCGTGCTAG	1.22
TAAGATTCCAGTTTCGATTAGTGCTAG	5.06
GACGATATCGGGTTCCGAGACGTGCTA	0.46
TTAGGTTTAGGTTTCGGTTAGTGCTAG	5.18
CTTGCCCACTTCTGTGACAGGTGCTAG	1.16
GACAGTCTCCTTCTCCTGACGTGCTAG	4.97
GACGATCTCAGACTCGAGACGTGCTAG	0.432

Study 3 — method: RNA Bind-n-Seq; form: RNA; medium: in vitro; concentration: not given; baseline: input RNA pool; direction: higher = stronger binding
Target: RING finger protein unkempt homolog, zinc fingers 1-6, GST-SBP tag (UNK, Homo sapiens, UniProt Q9C0B0, residues 30-357)
Chain of UniProt Q9C0B0 (30-357, looked up): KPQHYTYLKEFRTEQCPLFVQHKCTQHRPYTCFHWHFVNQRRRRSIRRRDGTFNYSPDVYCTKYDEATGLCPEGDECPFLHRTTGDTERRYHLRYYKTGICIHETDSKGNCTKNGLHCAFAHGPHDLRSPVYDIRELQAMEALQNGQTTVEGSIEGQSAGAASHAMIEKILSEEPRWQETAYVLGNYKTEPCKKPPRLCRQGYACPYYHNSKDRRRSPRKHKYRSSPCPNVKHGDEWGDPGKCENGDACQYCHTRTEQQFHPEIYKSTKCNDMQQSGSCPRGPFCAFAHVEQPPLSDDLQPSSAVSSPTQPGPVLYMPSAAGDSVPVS
Setting: RNA with constant flanks, human and mouse sites, ends assumed
All sequences stand within: GGGAGUUCUACAGUCCGACGAUC … CAACAGAGGAUUGAGCAUCA
Oligonucleotide	bound/input enrichment [ratio]
UGUAUGUUCUUCAAGAAUUACGAGAAAGCCAAAGUUAAACUUUUGGAGUUCCAGAAAAGCCUUGAAACACUUGACACAGUGGCCGCAAGGGUCCUUCCUAUCAUACCUGCCUCGUGGAUG	0.148
ACAAUCCUGUCCCAUGGUAUUUAACAUAAAAAAAAAUAAAACUGUUAACAGAUUCUUGCUCGAUAGCUUGUUUGUGUCUGUCGUGUUAUUAGAGGGAACUCCACUAUAUAUGGUCACUUG	0.532
UCUUUUUUUUAAAGUUAUCAAAUCUUCAUUUUCUAAGAGUAGCCCUUUAUAGUGUACAAAAUGAUAUUAAGUGCAUUAUUAUCUUCGCUUUUCAUGGCUCUGAGUCAUAAAACAAGCUGG	0.438
CUUUGUGUUCAUGGUGGACUUUCACCAGAAAUACACACACUGGAUGAUAUUAGGAGAUUAGAUAGAUUUAAAGAGCCACCUGCAUUUGGACCAAUGUGUGACUUGCUAUGGUCUGAUCCU	22
GAUGAACUAGAAGAUGAUGAUUUUGACAGCAAUGCAGUUGCAGGCGAGAGUGCUCUAGAUCGAAUGGCUUGCGGACUUGGUGGAAAGCUCGUUCUGCCGAUGAUCAAGGAACACAUUAUG	0.356
ACCGGCGCAGUGCCCCGUCCUGAUUGAUCGCAUCGCUGGGCUCAGAUGACUGUAAAAUGAAUAGAUGAAAUCCUUGCUUCUGGAAGAUUUUCUUGGGCAUCUCCGGGAAAGUGCGUUUUA	0.223
AACAAGCCCUGCCCAGUGUGCAGACAGCCAAUCCAAAUGAUUGUGCUAACUUACUUCAACUAGCUGACCUGCUCACAAAAAUAGAAUUUUAUAUUUCUAACUAUAUGACCCCCAAAUUAG	50.8
UGUCUUGCUUUUCACCCAACAGAACAGAUCCUGGCCUCGGGCUCAAGGGAUUAUACUCUGAAAUUGUUCGAUUAUUCCAAACCGUCUGCAAAAAGAGCUUUCAAAUACAUUCAGGAAGCC	0.174

Further values, each from its own experiment
Molecule	target	test	system	setting	how to read	endpoint	value
PhoQ, residues 284 288 289 292 302 303 TLMATV	PhoP, residues 12 14 15 18 19 LQHIR (Escherichia coli, UniProt P23836)	Sort-seq, item: YFP reporter	E. coli	PhoQ-PhoP variant library, together with: 10 µM Mg2+	baseline: high Mg2+ state, higher = stronger signaling	fold induction	4.28
